{"data": "Assay results pooled from the literature", "observed": "enzyme activity", "mode": "inhibitor", "CTSL": "Procathepsin L (CTSL, Homo sapiens, UniProt P07711)", "ST14": "Suppressor of tumorigenicity 14 protein (ST14, Homo sapiens, UniProt Q9Y5Y6)", "note": "Lines come from different studies, so protocols differ.", "sequence of UniProt P07711 (whole entry, looked up)": "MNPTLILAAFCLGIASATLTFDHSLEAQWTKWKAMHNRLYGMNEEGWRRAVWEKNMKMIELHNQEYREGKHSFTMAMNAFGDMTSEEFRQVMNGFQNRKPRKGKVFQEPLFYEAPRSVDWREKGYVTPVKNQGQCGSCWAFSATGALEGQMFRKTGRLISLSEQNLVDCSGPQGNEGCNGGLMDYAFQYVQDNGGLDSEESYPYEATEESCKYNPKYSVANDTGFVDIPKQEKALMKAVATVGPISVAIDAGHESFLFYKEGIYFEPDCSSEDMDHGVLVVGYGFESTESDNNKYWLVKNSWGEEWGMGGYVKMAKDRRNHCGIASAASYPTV", "sequence of UniProt Q9Y5Y6 (whole entry, looked up)": "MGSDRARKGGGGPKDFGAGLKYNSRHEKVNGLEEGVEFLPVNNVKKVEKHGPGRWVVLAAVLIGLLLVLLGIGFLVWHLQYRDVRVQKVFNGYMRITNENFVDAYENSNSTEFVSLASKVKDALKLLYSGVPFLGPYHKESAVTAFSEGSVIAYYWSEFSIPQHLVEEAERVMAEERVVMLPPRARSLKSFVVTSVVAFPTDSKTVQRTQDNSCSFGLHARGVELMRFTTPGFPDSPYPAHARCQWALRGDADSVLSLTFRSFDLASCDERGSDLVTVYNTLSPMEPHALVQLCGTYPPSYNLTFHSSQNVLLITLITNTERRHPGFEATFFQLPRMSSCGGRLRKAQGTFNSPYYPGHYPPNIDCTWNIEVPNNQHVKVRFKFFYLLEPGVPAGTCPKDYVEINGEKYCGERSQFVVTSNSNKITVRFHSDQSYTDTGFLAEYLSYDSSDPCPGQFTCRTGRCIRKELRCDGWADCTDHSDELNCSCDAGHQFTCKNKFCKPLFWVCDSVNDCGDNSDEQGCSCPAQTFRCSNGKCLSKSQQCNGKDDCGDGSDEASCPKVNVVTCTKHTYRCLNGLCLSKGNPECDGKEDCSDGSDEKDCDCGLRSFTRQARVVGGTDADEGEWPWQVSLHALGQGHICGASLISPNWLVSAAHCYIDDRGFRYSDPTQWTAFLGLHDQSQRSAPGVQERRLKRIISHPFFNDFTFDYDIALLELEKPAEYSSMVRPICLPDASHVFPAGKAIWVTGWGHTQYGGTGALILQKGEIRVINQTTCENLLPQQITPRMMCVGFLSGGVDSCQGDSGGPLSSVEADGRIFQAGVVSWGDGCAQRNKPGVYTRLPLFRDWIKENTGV", "sequence of UniProt P05164 (whole entry, looked up)": "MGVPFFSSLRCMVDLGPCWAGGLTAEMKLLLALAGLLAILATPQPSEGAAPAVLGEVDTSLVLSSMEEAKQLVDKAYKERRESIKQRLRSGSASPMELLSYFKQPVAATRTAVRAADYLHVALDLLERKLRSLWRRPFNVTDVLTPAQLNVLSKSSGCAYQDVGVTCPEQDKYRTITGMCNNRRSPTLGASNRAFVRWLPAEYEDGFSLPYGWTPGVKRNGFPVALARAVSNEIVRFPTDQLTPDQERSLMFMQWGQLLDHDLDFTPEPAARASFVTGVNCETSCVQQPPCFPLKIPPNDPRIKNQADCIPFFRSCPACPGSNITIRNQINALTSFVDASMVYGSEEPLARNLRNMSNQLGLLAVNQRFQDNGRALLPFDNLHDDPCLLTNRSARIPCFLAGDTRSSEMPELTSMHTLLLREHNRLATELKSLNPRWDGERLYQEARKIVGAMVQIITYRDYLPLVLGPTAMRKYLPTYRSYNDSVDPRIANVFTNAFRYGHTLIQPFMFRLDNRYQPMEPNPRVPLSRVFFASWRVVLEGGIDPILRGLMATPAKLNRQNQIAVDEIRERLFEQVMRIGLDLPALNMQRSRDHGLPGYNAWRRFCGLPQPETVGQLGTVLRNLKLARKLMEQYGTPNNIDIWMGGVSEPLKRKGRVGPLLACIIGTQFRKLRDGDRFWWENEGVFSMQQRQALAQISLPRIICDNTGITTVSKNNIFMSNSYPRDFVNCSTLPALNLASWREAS", "sequence of UniProt P49841 (whole entry, looked up)": "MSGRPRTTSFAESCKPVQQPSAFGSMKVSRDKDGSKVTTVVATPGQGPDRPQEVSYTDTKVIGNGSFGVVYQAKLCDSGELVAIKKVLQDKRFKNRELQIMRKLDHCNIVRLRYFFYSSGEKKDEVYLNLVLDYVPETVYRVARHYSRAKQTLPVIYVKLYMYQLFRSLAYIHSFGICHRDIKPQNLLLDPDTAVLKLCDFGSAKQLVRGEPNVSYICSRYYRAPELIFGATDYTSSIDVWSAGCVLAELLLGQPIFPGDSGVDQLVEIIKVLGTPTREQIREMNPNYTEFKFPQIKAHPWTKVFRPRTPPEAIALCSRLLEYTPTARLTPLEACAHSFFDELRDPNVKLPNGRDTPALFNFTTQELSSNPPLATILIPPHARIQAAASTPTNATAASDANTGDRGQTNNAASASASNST", "sequence of UniProt Q9Y5S2 (whole entry, looked up)": "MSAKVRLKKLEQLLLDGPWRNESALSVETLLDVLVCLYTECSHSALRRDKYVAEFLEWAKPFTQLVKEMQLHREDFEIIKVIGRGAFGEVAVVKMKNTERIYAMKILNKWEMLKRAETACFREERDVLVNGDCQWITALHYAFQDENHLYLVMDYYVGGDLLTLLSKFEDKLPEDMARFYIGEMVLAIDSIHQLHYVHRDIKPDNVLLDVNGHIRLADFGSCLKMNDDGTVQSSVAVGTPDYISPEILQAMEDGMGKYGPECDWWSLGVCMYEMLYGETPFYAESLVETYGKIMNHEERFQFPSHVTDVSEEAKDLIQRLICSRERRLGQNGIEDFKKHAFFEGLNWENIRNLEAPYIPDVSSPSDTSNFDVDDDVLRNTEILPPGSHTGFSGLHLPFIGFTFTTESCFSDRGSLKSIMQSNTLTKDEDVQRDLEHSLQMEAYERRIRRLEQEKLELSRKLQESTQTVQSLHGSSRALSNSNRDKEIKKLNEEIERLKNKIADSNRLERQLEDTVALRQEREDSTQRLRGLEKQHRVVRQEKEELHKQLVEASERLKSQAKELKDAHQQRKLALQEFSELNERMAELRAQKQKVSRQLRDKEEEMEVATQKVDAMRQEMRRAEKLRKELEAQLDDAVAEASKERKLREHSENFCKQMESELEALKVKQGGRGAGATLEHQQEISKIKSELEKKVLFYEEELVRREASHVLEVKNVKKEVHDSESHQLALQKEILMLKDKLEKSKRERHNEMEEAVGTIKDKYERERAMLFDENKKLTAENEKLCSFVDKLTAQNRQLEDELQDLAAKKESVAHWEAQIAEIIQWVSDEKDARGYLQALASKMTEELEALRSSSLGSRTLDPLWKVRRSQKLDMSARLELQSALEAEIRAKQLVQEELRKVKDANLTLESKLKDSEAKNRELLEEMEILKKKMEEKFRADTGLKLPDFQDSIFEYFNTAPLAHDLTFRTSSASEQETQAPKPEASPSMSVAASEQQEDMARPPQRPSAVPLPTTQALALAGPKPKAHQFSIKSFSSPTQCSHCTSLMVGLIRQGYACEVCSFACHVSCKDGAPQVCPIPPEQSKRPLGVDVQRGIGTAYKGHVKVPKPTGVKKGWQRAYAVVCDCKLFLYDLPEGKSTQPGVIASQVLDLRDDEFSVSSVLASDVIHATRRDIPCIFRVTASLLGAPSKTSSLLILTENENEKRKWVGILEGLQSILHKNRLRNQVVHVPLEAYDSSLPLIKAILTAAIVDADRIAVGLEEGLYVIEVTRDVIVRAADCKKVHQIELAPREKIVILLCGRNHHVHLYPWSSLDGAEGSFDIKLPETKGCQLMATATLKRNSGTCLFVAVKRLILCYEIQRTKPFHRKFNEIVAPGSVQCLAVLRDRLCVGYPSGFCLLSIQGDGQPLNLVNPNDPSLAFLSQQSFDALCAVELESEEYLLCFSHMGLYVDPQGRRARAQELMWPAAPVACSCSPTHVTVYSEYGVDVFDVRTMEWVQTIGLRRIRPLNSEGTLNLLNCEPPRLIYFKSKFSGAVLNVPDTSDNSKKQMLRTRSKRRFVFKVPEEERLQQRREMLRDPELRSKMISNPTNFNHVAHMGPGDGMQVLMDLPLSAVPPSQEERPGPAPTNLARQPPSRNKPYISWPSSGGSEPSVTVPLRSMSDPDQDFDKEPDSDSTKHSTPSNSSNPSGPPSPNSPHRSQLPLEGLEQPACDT", "sequence of UniProt Q8N568 (whole entry, looked up)": "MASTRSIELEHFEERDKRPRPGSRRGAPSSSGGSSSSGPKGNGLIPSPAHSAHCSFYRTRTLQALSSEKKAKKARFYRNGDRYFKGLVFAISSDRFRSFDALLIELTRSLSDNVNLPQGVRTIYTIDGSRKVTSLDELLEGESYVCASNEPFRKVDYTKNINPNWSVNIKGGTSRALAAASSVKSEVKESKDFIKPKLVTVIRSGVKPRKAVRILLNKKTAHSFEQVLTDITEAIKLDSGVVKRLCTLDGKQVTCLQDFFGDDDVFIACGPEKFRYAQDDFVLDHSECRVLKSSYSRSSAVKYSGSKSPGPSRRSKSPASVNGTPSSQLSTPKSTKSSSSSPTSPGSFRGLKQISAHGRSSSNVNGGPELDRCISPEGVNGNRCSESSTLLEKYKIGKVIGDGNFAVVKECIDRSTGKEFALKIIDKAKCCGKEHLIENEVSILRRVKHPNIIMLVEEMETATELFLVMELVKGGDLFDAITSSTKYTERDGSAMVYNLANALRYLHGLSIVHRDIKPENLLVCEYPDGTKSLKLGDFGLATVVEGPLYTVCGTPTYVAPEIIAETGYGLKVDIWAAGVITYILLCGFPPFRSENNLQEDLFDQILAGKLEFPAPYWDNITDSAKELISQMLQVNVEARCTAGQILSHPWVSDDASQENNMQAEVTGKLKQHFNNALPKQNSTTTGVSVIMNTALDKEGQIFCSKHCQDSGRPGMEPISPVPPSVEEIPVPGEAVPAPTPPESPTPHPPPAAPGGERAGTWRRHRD"}
{"Compound": "OCC1OC(OCC2OC(OCC3OC(OC4(CO)OC(CO)C(O)C4O)C(O)C(O)C3O)C(O)C(O)C2O)C(O)C(O)C1O (stereo not drawn)", "target": "CTSL", "tested at": "100 µM", "remaining activity [%]": 98.4}
{"Compound": "CNc1ncc2c(/C=C/C(=O)N3CCC(OC)CC3)nn(Cc3cccc(C(F)(F)F)c3)c2n1", "target": "Serine/threonine-protein kinase DCLK2 (DCLK2, Homo sapiens, UniProt Q8N568)", "technique": "radiometric", "tested at": "1 µM", "remaining activity [%]": 88}
{"Compound": "CC(C)[C@@H](NC(=O)[C@H](Cc1cscn1)NC(=O)CCc1ccccc1)C(=O)N[C@@H](CCCNC(=N)N)C(=O)c1nc2ccccc2s1", "target": "ST14", "tested at": "0.1 µM", "remaining activity [%]": 89}
{"Compound": "CC(=O)OC[C@H](Cc1ccccc1)NC(=O)[C@H](Cc1ccccc1)NC(=O)c1ccccc1", "target": "CTSL", "tested at": "100 µM", "remaining activity [%]": 89}
{"Compound": "N=C(N)NCCC[C@H](NC(=O)[C@H](CCc1ccccc1)NC(=O)[C@H](Cc1cscn1)NC(=O)CCc1ccccc1)C(=O)c1nc2ccccc2s1", "target": "ST14", "tested at": "0.1 µM", "remaining activity [%]": 2}
{"Compound": "Cc1cc([C@@H](C)Nc2ccccc2C(=O)O)c2nc(N3CCC(F)(F)CC3)c(C#N)c(=O)n2c1", "target": "Phosphatidylinositol 4-phosphate 5-kinase type-1 gamma (PIP5K1C, Homo sapiens, UniProt O60331)", "technique": "ADP detection", "tested at": "10 µM", "remaining activity [%]": 108}
{"Compound": "CC[C@H](C)[C@H](NC(=O)[C@H](CCC(N)=O)NC(=O)[C@H](CC(C)C)NC(=O)[C@H](CCSC)NC(=O)[C@H](CCCCN)NC(=O)[C@H](CO)NC(=O)[C@H](CO)NC(=O)[C@H](CCSC)NC(=O)[C@H](CC(C)C)NC(=O)[C@H](CC(N)=O)NC(=O)[C@@H](NC(=O)[C@@H](NC(=O)[C@H](CO)NC(=O)[C@H](CC(C)C)NC(=O)[C@H](CS)NC(=O)[C@H](CCCNC(=N)N)NC(=O)[C@H](CC(=O)O)NC(=O)[C@H](Cc1c[nH]c2ccccc12)NC(=O)[C@H](Cc1ccccc1)NC(=O)[C@H](C)NC(=O)[C@H](CCC(=O)O)NC(=O)[C@@H](N)CCCCN)C(C)C)[C@@H](C)CC)C(=O)N[C@@H](CC(N)=O)C(=O)N[C@@H](C)C(=O)O", "target": "Glycogen synthase kinase-3 beta (GSK3B, Homo sapiens, UniProt P49841)", "technique": "radiometric", "tested at": "500 µM", "time": "20 min", "remaining activity [%]": 124}
{"Compound": "COc1cc(-c2cncc3c2CN(C)Cc2cc(N4CCNCC4)ccc2-3)cc(OC)c1OC", "target": "Serine/threonine-protein kinase MRCK beta (CDC42BPB, Homo sapiens, UniProt Q9Y5S2)", "tested at": "1 µM", "remaining activity [%]": 109}
{"Compound": "O=C(O)c1cc(O)c2c(c1)C(=O)c1cccc(O)c1C2=O", "target": "CTSL", "tested at": "100 µM", "remaining activity [%]": 109}
{"Compound": "CC[C@H](C)[C@H](NC(=O)[C@H](CCC(N)=O)NC(=O)[C@@H](NC(=O)[C@H](CCSC)NC(=O)[C@H](CCCCN)NC(=O)[C@H](CO)NC(=O)[C@@H](NC(=O)[C@H](CCSC)NC(=O)[C@H](CC(C)C)NC(=O)[C@H](CC(N)=O)NC(=O)[C@@H](NC(=O)[C@@H](NC(=O)[C@H](CO)NC(=O)[C@H](CC(C)C)NC(=O)[C@H](C)NC(=O)[C@H](CCCNC(=N)N)NC(=O)[C@H](CCC(=O)O)NC(=O)[C@H](Cc1ccc(O)cc1)NC(=O)[C@H](Cc1ccccc1)NC(=O)[C@H](C)NC(=O)[C@H](CC(N)=O)NC(=O)[C@@H](N)CCCCN)[C@@H](C)CC)[C@@H](C)CC)[C@@H](C)O)C(C)C)C(=O)N[C@@H](CC(N)=O)C(=O)N[C@H](C(=O)O)C(C)C", "target": "Cyclin-dependent kinase 5, with p35 (CDK5, Homo sapiens, UniProt Q00535)", "technique": "radiometric", "tested at": "50 µM", "time": "20 min", "remaining activity [%]": 65}
{"Compound": "COc1ccc(Cl)cc1-c1cc(=O)[nH]c(=S)n1CC(N)=O", "target": "Myeloperoxidase (MPO, Homo sapiens, UniProt P05164)", "tested at": "5 µM", "remaining activity [%]": 7.82}
{"Compound": "O=C(C=Cc1ccc(O)c(O)c1)c1ccc(O)c(O)c1O", "target": "CTSL", "tested at": "100 µM", "remaining activity [%]": 35.8}
